# Published values collected from several papers.
# A part holds a random share of what one study measured.
# Chain of UniProt P41145 (whole entry, looked up): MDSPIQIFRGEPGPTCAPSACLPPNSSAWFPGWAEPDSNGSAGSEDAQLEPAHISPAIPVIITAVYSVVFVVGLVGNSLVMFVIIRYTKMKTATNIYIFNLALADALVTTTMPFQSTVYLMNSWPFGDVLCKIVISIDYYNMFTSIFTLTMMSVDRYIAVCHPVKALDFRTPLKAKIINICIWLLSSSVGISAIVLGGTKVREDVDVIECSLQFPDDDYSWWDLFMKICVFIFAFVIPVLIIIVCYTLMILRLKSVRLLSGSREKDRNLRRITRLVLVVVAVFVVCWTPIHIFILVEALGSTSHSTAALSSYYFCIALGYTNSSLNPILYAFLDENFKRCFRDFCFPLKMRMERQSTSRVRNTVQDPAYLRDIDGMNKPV
# Chain of UniProt P31645 (whole entry, looked up): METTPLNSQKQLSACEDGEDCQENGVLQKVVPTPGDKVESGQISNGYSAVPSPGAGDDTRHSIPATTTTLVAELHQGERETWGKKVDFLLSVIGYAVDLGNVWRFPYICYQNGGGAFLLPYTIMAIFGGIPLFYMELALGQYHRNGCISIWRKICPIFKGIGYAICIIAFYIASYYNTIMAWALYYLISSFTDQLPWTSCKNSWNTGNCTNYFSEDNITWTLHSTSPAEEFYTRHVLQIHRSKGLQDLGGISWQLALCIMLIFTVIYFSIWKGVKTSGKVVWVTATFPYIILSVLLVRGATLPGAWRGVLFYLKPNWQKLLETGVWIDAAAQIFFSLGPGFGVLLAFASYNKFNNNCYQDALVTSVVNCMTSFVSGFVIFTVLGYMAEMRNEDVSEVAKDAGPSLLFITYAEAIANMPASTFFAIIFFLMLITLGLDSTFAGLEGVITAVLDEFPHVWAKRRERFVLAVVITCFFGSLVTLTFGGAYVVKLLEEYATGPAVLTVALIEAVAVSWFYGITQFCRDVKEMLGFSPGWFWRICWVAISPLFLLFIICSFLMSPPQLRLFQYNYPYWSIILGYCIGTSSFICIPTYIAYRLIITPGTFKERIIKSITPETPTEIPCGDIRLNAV
# Chain of UniProt P20309 (whole entry, looked up): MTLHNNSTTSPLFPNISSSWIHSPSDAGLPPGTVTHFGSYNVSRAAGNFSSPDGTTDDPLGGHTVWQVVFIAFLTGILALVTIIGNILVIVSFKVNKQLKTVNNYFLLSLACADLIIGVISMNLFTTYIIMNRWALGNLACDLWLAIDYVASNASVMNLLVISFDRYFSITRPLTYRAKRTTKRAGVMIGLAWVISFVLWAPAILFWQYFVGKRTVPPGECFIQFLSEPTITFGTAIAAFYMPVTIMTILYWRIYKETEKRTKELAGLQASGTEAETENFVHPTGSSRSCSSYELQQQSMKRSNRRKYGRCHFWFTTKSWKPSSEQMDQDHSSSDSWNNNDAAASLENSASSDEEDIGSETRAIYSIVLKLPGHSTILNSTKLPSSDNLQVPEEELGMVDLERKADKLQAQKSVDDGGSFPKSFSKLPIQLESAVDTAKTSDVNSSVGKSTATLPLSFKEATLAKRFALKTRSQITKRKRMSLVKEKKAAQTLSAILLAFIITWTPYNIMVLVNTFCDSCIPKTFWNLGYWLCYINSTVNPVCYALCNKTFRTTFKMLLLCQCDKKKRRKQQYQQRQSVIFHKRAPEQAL
# Chain of UniProt P21918 (whole entry, looked up): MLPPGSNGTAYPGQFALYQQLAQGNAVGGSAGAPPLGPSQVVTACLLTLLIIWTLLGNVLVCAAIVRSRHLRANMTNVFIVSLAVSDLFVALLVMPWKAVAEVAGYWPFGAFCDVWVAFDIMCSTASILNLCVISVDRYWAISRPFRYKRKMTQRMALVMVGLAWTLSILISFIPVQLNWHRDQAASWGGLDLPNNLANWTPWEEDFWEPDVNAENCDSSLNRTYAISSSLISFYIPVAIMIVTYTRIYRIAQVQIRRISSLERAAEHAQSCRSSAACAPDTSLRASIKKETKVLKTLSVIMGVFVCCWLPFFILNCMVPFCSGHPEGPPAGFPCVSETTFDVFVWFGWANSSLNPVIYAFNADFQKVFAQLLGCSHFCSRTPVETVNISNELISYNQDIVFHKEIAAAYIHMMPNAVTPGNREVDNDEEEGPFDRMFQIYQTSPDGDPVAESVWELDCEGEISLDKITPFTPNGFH
# Chain of UniProt P35372 (whole entry, looked up): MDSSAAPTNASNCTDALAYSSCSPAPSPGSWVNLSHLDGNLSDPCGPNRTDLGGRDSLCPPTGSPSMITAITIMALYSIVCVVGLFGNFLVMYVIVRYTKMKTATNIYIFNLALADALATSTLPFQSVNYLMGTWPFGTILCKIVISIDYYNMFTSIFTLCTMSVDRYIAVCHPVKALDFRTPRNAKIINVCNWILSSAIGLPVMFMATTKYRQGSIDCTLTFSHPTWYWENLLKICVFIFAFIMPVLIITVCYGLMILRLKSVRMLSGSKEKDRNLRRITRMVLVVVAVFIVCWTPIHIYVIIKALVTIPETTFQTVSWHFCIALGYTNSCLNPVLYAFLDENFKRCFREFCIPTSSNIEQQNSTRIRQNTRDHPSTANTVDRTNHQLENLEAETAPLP
# Chain of UniProt P23975 (whole entry, looked up): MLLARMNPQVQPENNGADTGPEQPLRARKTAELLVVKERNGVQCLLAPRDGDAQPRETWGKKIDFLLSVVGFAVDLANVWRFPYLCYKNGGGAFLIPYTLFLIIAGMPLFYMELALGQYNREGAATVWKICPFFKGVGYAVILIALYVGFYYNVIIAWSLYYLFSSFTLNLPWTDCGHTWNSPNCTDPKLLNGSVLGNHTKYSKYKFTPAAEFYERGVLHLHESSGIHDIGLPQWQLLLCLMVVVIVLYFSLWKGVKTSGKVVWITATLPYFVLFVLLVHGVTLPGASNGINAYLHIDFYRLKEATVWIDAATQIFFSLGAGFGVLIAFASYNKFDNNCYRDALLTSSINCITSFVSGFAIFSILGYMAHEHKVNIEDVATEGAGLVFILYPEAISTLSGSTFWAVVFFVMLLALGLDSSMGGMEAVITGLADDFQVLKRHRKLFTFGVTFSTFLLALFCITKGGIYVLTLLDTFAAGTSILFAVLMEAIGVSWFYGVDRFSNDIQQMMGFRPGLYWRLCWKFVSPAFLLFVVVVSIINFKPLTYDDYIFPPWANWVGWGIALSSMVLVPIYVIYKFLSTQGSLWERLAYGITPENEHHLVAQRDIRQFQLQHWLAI

# Block 1
# Target: Bromodomain-containing protein 4, BD1 (BRD4, Homo sapiens, UniProt O60885)
# Concentration: 50 µM
SMILES,inhibition
C=CCN(/C=C1/C(=O)O[C@H](COC)[C@@]2(C)C1=C(O)C(=O)C1=C2[C@H](OC(C)=O)C[C@]2(C)C(=O)CC[C@@H]12)CC=C,1.55%
COc1ccc2c(c[n+](C)c3c4cc5c(cc4ccc23)OCO5)c1OC,19.9%
C[C@]12O[C@H](C[C@]1(O)CO)n1c3ccccc3c3c4c(c5c6ccccc6n2c5c31)CNC4=O,18.9%

# Block 2
# Compound: CCC(=O)N[C@@H]1CC[C@H](C(=O)N(C)c2ccc(-c3nc4ccccc4o3)cc2)C1
# Read-out: binding
# Technique: radioligand binding
# Concentration: 10 µM
target,inhibition [%]
"Muscarinic acetylcholine receptor M3 (CHRM3, Homo sapiens, UniProt P20309)",-11.2
"Sodium-dependent noradrenaline transporter (SLC6A2, Homo sapiens, UniProt P23975)",14.5
"Sodium-dependent serotonin transporter (SLC6A4, Homo sapiens, UniProt P31645)",20.2
"D(1B) dopamine receptor (DRD5, Homo sapiens, UniProt P21918)",4.47
"Mu-type opioid receptor (OPRM1, Homo sapiens, UniProt P35372)",14
"Kappa-type opioid receptor (OPRK1, Homo sapiens, UniProt P41145)",20.4

# Block 3
# Cell line: HaCaT
# Concentration: 100 µM
# Time: 36 h
Compound,viability [%]
NCC(O)c1ccc(O)cc1 (stereo not drawn),85.1
COc1ccc(CN2CCNCC2)c(OC)c1OC,100
COC(=O)Nc1nc2ccccc2[nH]1,66.3
C[C@@H](CO)NC(=O)[C@@H]1C=C2c3cccc4[nH]cc(c34)C[C@H]2N(C)C1,85.2
N=C(N)NN,91.1
COc1ccc(CN(C(=O)[C@@H](N)Cc2c(C)cc(C(N)=O)cc2C)[C@@H](C)c2nc(-c3ccccc3)c[nH]2)cc1C(=O)O,93
ClCC1C(CCl)[C@@]2(Cl)C(Cl)=C(Cl)[C@]1(Cl)C2(Cl)Cl (stereo partly drawn),5.77
CCC(=O)O[C@H]1CC[C@H]2[C@@H]3CCC4=CC(=O)CC[C@]4(C)[C@H]3CC[C@]12C,38.4
CC(C)OC(=O)[C@H](C)N[P@](=O)(CO[C@H](C)Cn1cnc2c(N)ncnc21)Oc1ccccc1,69.3
C[C@H]1CNCCc2ccc(Cl)cc21,82

# Further values, each from its own experiment
# Species: mouse
# Sample: microsomes or S9
# Concentration: 2 µM
# Time: 0.5 h
SMILES,remaining compound
C=C(C)[C@H]1Cc2c(ccc3c2O[C@@H]2COc4cc(OC)c(OC)cc4[C@@H]2C3=O)O1,0.323%
COc1cc2c(cc1OC)[C@@H]1C(=O)c3ccc4oc(C(C)C)cc4c3O[C@@H]1CO2,4.58%
